Measurements collected from several papers.
Lines come from different studies, so protocols differ. ± marks the error that the study gave.

SMILES = Cc1cc(-c2ccc(NC(=O)[C@H](CCCCNC(=O)CCN3C(=O)CC(SCCC(=O)N[C@H](Cc4ccccc4)C(=O)N[C@H]4CSSC[C@@H](C(=O)N[C@H](C(=O)O)[C@@H](C)O)NC(=O)[C@H]([C@@H](C)O)NC(=O)[C@H](CCCCN)NC(=O)[C@@H](Cc5c[nH]c6ccccc56)NC(=O)[C@H](Cc5ccc(O)cc5)NC4=O)C3=O)NC(=O)CN3CCN(CC(=O)O)CCN(CC(=O)O)CCN(CC(=O)O)CC3)c(C)c2)ccc1N=Nc1ccc2c(S(=O)(=O)O)cc(S(=O)(=O)O)c(N)c2c1O (some centres unmarked) [lutetium-177 labelled]; system = patients with metastatic NETs, all metastatic lesions; measurement = residence time; result = 0.4 ± 0.19 h
SMILES = C=C1CC[C@H](OCCCNC(=O)CCOCCOCCOCCOCCOCCOCCOCCOCCOCCOCCOCCOCCOCCOCCOCCOCCOCCOCCOCCOCCOCCOCCOCCOCCOCCOCCOCCOCCOCCOCCOCCOCCOCCOCCOCCOCCNC(=O)CCN2C(=O)CC(SC[C@H](NC(=O)[C@H](Cc3ccccc3)NC(=O)[C@H](CC(N)=O)NC(=O)[C@H](Cc3c[nH]cn3)NC(=O)[C@@H](NC(=O)[C@H](CC(=O)O)NC(=O)[C@H](CCC(N)=O)NC(=O)[C@H](CC(C)C)NC(=O)[C@H](CCCCN)NC(=O)[C@H](CCCCN)NC(=O)[C@H](CCCNC(=N)N)NC(=O)[C@H](CC(C)C)NC(=O)[C@H](Cc3c[nH]c4ccccc34)NC(=O)[C@H](CCC(=O)O)NC(=O)[C@@H](NC(=O)[C@H](CCCNC(=N)N)NC(=O)[C@H](CCC(=O)O)NC(=O)[C@H](CCSC)NC(=O)[C@H](CO)NC(=O)[C@H](CC(N)=O)NC(=O)[C@H](CC(C)C)NC(=O)[C@H](Cc3c[nH]cn3)NC(=O)[C@H](CCCCN)NC(=O)CNC(=O)[C@H](CC(C)C)NC(=O)[C@H](CC(N)=O)NC(=O)[C@H](Cc3c[nH]cn3)NC(=O)[C@H](CCSC)NC(=O)[C@H](CC(C)C)NC(=O)[C@H](CCC(N)=O)NC(=O)[C@@H](NC(=O)[C@H](CCC(=O)O)NC(=O)[C@H](CO)NC(=O)[C@@H](NC(=O)[C@@H](N)CO)C(C)C)[C@@H](C)CC)C(C)C)C(C)C)C(N)=O)C2=O)C/C1=C/C=C1\CCC[C@]2(C)[C@@H]([C@H](C)CCCC(C)(C)O)CC[C@@H]12 (some centres unmarked); system = cynomolgus monkey; conditions = subcutaneous, 0.7 µg/kg every other day, 89 days; scale = baseline: reference dose; measurement = dose-normalized AUC; result = 1
SMILES = CCCC[C@H](NC(=O)CCCCCCCNC(=O)CN1CCN(CC(=O)O)CCN(CC(=O)O)CC1)C(=O)N[C@H]1CC(=O)NCCCC[C@@H](C(N)=O)NC(=O)[C@H](Cc2c[nH]c3ccccc23)NC(=O)[C@H](CCCNC(=N)N)NC(=O)[C@@H](Cc2ccccc2)NC(=O)[C@H](Cc2c[nH]cn2)NC1=O [copper-64 labelled]; system = C57 mice, lung; conditions = intravenous, 0.37 MBq, 24 h; measurement = tissue uptake; result = 0.38 ± 0.06 %ID/g
SMILES = N=C(N)NCCC[C@@H]1NC(=O)[C@H](CCCCNC(=O)CNC(=O)CNC(=O)CNC(=O)CC[C@H](NC(=O)CNC(=O)CNC(=O)CNC(=O)CN2CCN(CC(=O)O)CCN(CC(=O)O)CCN(CC(=O)O)CC2)C(=O)NCC(=O)NCC(=O)NCC(=O)NCCCC[C@@H]2NC(=O)[C@@H](Cc3ccccc3)NC(=O)[C@H](CC(=O)O)NC(=O)CNC(=O)[C@H](CCCNC(=N)N)NC2=O)NC(=O)[C@@H](Cc2ccccc2)NC(=O)[C@H](CC(=O)O)NC(=O)CNC1=O [indium-111 labelled]; system = female athymic nu/nu mice, intestine; conditions = intravenous, 72 h; measurement = tissue uptake; result = 1.89 ± 0.19 %ID/g
SMILES = CC1=C(I)C(C)=[N+]2C1=C(c1ccc(OCCn3cc(CNC(=O)CSC[C@H](NC(=O)c4ccc(-c5nnc(C)nn5)cc4)C(=O)N[C@@H](CC4CCCCC4)C(=O)N[C@H](CCCNC(=N)N)C(=O)N[C@@H](CC4CCCCC4)C(=O)N[C@H](CCCNC(=N)N)C(=O)N[C@@H](CC4CCCCC4)C(=O)N[C@H](CCCNC(=N)N)C(N)=O)nn3)cc1)c1c(C)c(I)c(C)n1[B-]2(F)F; conditions = 1 µM, with: DPBF, 525 nm light; scale = baseline: rose bengal, erythrosine B; measurement = singlet oxygen quantum yield; result = 0.56
SMILES = N=C(N)NCCC[C@@H]1NC(=O)[C@H](CCCCNC(=O)CC[C@H](NC(=O)CC[C@H](NC(=O)CN2CCN(CC(=O)O)CCN(CC(=O)O)CCN(CC(=O)O)CC2)C(=O)N[C@@H](CCC(=O)NCCCC[C@@H]2NC(=O)[C@@H](Cc3ccccc3)NC(=O)[C@H](CC(=O)O)NC(=O)CNC(=O)[C@H](CCCNC(=N)N)NC2=O)C(=O)NCCCC[C@@H]2NC(=O)[C@@H](Cc3ccccc3)NC(=O)[C@H](CC(=O)O)NC(=O)CNC(=O)[C@H](CCCNC(=N)N)NC2=O)C(=O)NCCCC[C@@H]2NC(=O)[C@@H](Cc3ccccc3)NC(=O)[C@H](CC(=O)O)NC(=O)CNC(=O)[C@H](CCCNC(=N)N)NC2=O)NC(=O)[C@@H](Cc2ccccc2)NC(=O)[C@H](CC(=O)O)NC(=O)CNC1=O [indium-111 labelled]; system = female athymic nu/nu mice, intestine; conditions = intravenous, 1 h; measurement = tissue uptake; result = 8.42 ± 1.65 %ID/g
SMILES = Cc1cc(-c2ccc(NC(=O)[C@H](CCCCNC(=O)CCOCCOCCC(=O)N[C@H](Cc3ccccc3)C(=O)N[C@H]3CSSC[C@@H](C(=O)N[C@H](C(=O)O)[C@@H](C)O)NC(=O)[C@H]([C@@H](C)O)NC(=O)[C@H](CCCCN)NC(=O)[C@@H](Cc4c[nH]c5ccccc45)NC(=O)[C@H](Cc4ccc(O)cc4)NC3=O)NC(=O)CN3CCN(CC(=O)O)CCN(CC(=O)O)CCN(CC(=O)O)CC3)c(C)c2)ccc1N=Nc1ccc2c(S(=O)(=O)O)cc(S(=O)(=O)O)c(N)c2c1O [lutetium-177 labelled]; system = patients with metastatic NETs, whole body; measurement = residence time; result = 149 ± 15.1 h
SMILES = CCCC[C@H](NC(=O)CNC(=O)CNC(=O)CN1CCN(CC(=O)O)CCN(CC(=O)O)CCN(CC(=O)O)CC1)C(=O)N[C@H]1CC(=O)NCCCC[C@@H](C(N)=O)NC(=O)[C@H](Cc2c[nH]c3ccccc23)NC(=O)[C@H](CCCNC(=N)N)NC(=O)[C@@H](Cc2ccccc2)NC(=O)[C@H](Cc2c[nH]cn2)NC1=O [lutetium-177 labelled]; system = C57 mouse, female, muscle; conditions = intravenous, 0.037 MBq, 24 h; measurement = tissue uptake; result = 0.14 ± 0.05 %ID/g

Some of these lines once more:
SMILES = CCCC[C@H](NC(=O)CCCCCCCNC(=O)CN1CCN(CC(=O)O)CCN(CC(=O)O)CC1)C(=O)N[C@H]1CC(=O)NCCCC[C@@H](C(N)=O)NC(=O)[C@H](Cc2c[nH]c3ccccc23)NC(=O)[C@H](CCCNC(=N)N)NC(=O)[C@@H](Cc2ccccc2)NC(=O)[C@H](Cc2c[nH]cn2)NC1=O [copper-64 labelled]; system = C57 mice, lung; conditions = intravenous, 0.37 MBq, 24 h; measurement = tissue uptake; result = 0.38 ± 0.06 %ID/g
